# Assay results pooled from the literature.
# Lines come from different studies, so protocols differ. Several values in a cell are separate wells, animals, samples, runs or records. ± marks the error that the study gave.
Structure (SMILES),test,system,setting,how to read,measurement,value
CC(C)(C(=O)N1CCOc2c(C#N)cncc2C1)C(F)F,refers to: Dermatitis,human,"oral, 15 mg twice daily, 14 days, multiple ascending dose",,subjects with adverse event,0%
O=C(OC(C(F)(F)F)C(F)(F)F)N1CCN(Cc2cccc(Oc3ccccc3)c2)CC1,PET blocking study,"rhesus monkey, brain STR","0.3 mg/kg, compound pretreatment, with: [18F]T-401 tracer",,k2,0.151 min⁻¹
CO[C@H]1/C=C/O[C@@]2(C)Oc3c(C)c(O)c4c(O)c(c(/C=N/N5CCN(C)CC5)c(O)c4c3C2=O)NC(=O)/C(C)=C\C=C\[C@H](C)[C@H](O)[C@@H](C)[C@@H](O)[C@@H](C)[C@H](OC(C)=O)[C@@H]1C,,healthy humans,"oral, dose not given",,adverse event Flatulence,0%
O=C(c1cccnc1-c1ccncc1)N1CCC(O)(Cc2ccccc2)CC1,,"healthy Japanese adults, plasma","oral, 600 mg single dose",,AUC(0-inf)/dose,6.54 ng·h/mL/mg
COc1ccc(NC(=O)CN2CCOCC2)c([N+](=O)[O-])c1,,octanol/buffer,"pH 11, known kinase inactives set",,logP,2.06
O=C(COc1ccc(Cl)cc1)NC12CC(c3nnc([C@H]4C[C@@H](OC(F)(F)F)C4)o3)(C1)C2,,"healthy human both sexes, plasma","oral, 45 mg once daily, day 14, mean",,steady-state Ctrough,1540 nM
Cn1cc(-c2cn3nccc3c(-c3cnn([C@]4(CC#N)C[C@@H](C#N)C4)c3)n2)cn1,,"healthy humans fasted, plasma","oral, 3 mg single dose, geometric mean",,dose-normalised AUC(0-t),13.4 ng·h/mL/mg
CN(CC#N)C(=O)C[C@H](Nc1nc2ccccc2[nH]1)c1cccc(C(F)(F)F)c1,,human,"intravenous infusion, 2 mg/kg, 10 mg/mL formulation",,steady-state volume of distribution,47 ± 18.2 L
Cc1cc(-c2nccc3c2ccn3CC(=O)Nc2ccc(-c3cnccn3)cn2)ccn1,,human,"15 mg once daily, multiple ascending dose",,subjects with coronavirus infection,11.1%
NC1(C(=O)N[C@@H](CCO)c2ccc(Cl)cc2)CCN(c2nc[nH]c3nccc2-3)CC1,,"human, plasma","oral, 480 mg twice daily, with: enzalutamide 160 mg daily",,dose-normalised AUC(0-last),2000 ng·h/mL and 3290 ng·h/mL and 1880 ng·h/mL and 3450 ng·h/mL and 4360 ng·h/mL
C[C@H](O)c1cc(C(=O)N[C@@H](C)Cn2ccc(-c3ccc(C#N)c(Cl)c3)n2)n[nH]1,,"human, fasted","oral, 300 mg 14C-darolutamide solution, geometric mean",,Vd/F,60600 mL
C[C@]12CC[C@@H]3c4ccc(O)cc4C[C@@H](CCCCCCCCC[S+]([O-])CCCC(F)(F)C(F)(F)F)[C@H]3[C@@H]1CC[C@@H]2O (stereo partly shown),,"non-tumour-bearing mouse, brain","subcutaneous, single dose, day 8, co-dosed orally daily 7 days",,total brain concentration,11 nmol/L
CC(C)n1c(Nc2cccnc2)nc2cnc(Nc3ccc(N4CCN(C)CC4)cc3)nc21,refers to: investigations (SOC),healthy male subjects,"oral, 100 mg, study, with: gemfibrozil",,subjects with adverse event,71.4%
O=C(Cc1ccc(OCCN2CCCC2)cc1)Nc1cc(C2CC2)[nH]n1,,octanol/buffer,pH 11,,logP,2.86
N#Cc1ccc2c(c1)[C@H]1CCCN(C(=O)c3ccc4[nH]cnc4c3)[C@H]1C2,,human,"20 mg, end of trial",,maximum ACTH level,10.6 pmol/L
CNC(=O)c1ccc(-c2cnc3ncc(Cc4ccc5ncccc5c4)n3n2)cc1F,,Japanese patients,"oral, 400 mg twice daily, grade 3/4",,Seizure patients,0%
COc1ccnc(C(=O)NC(CO)C(=O)O)c1O (racemic),aerobic dark soil incubation,clay soil,"20 °C, modelling endpoint",,DT50,60.1 days
CCCOc1ccc([C@H]2CNC(=O)N2c2ccc3[nH]cnc3c2)cc1,,"human, elderly, fasted, cerebrospinal fluid","oral, 300 mg twice daily, capsule, 6 h after final dose, day 7, geometric mean",,CSF concentration,24.7 ng/mL
CNC(=O)c1ccc(-c2cnc3ncc(Cc4ccc5ncccc5c4)n3n2)cc1F,refers to: Constipation,cancer patients,"oral, 600 mg twice daily, all expansion cohorts, grade 3-4",,patients with adverse event,5%
Nc1cccc2ccc(/C=C/C(=O)c3ccccc3)cc12,,toluene,,baseline: coumarin 153 in ethanol,fluorescence quantum yield,46.5 ± 2.2%
CCN1/C(=C/C(C)=O)Sc2ccc(F)cc21,,cynomolgus monkey,"oral, 30 mg/kg, 24 h post-dose",,diastolic blood pressure,75 ± 3 mmHg
Cc1nc2ncnn2c(O)c1NS(=O)(=O)c1ccc(Br)cc1,,octanol/buffer,"pH 11, known kinase inactives set",,logP,-1.23
CO[C@H]1C[C@@H]2CC[C@@H](C)[C@@](O)(O2)C(=O)C(=O)N2CCCC[C@H]2C(=O)O[C@H]([C@H](C)C[C@@H]2CC[C@@H](OC(=O)NCCOCCOCCOCCOCCOCCOCCOCCOCCC(=O)N3CCc4cc(Cn5nc(-c6ccc7oc(N)nc7c6)c6c(N)ncnc65)ccc4C3)[C@H](OC)C2)C[C@@H](O)[C@H](C)/C=C(\C)[C@@H](O)[C@@H](OC)C(=O)[C@H](C)C[C@H](C)/C=C/C=C/C=C/1C,,"tumour-bearing xenograft mice, plasma","intraperitoneal, 3 mg/kg, weekly dosing",,AUClast,52.5 µM·h
COc1ccc(C=CC(=O)O)cc1OS(=O)(=O)O,,"human, cerebrospinal fluid","concentration not given, median",,CSF concentration,12.8 nM
O=c1c2ccccc2oc2ccccc12,,tricaprin-tricaprylin mixture,"45 °C, tricaprin fraction 1.00",,solubility,0.0351 mole fraction
O=C(Nc1nc2cccc(-c3ccc(CN4CCS(=O)(=O)CC4)cc3)n2n1)C1CC1,refers to: headache,human rheumatoid arthritis patients,"oral, 30 mg once daily, 4 weeks, regardless of relatedness",,treatment-emergent adverse events,11.8%
Cn1c(=O)c2[nH]cnc2n(C)c1=O,,"human, both sexes, cerebrospinal fluid","dose not given, mean",,CSF concentration,65.2 nM
Cc1ncnc2c1ccn2[C@@H]1C[C@H](Oc2cc(C(F)F)c(F)c3c2CNCC3)[C@@H](O)[C@H]1O,,human,"oral, 2 mg twice daily",baseline: AUC(tau) multiple over single dose,accumulation ratio,13.1 and 4.56
CCc1cc(C(=O)NC)c2nccc(N3CCc4c(cc(Cn5ccnc5)cc4-c4cn(C)nc4C(F)(F)F)C3=O)c2c1,,Sprague Dawley rats,"oral, 50 mg/kg once daily, 7 days",,haematocrit,45.4 ± 1.35%
COc1cc([N+](=O)[O-])ccc1NC(=O)CN1CCOCC1,,octanol/buffer,pH 11,,logP,2
COc1c(OCCCN2CCOCC2)ccc2c1N=C(NC(=O)c1cnc(N)nc1)N1CCN=C21,,human,with: itraconazole,,decrease in clearance,36.1%
CN(C(=O)n1cnc(-c2cccnc2)c1)[C@H]1CC[C@H](O)CC1,,"rat, cerebellum","oral, 10 mg/kg daily for 5 days, 4 h",,tissue concentration,35.9 ± 6.5 ng/g
Cn1ncnc1[C@H]1c2n[nH]c(=O)c3cc(F)cc(c23)N[C@@H]1c1ccc(F)cc1,,"human patients, plasma","oral, 600 µg/m2, dose level DL3, median, with: temozolomide 20 mg/m2 daily days 2-6",,accumulation half-life,46.8 h
CCCS(=O)(=O)Nc1ccc(F)c(C(=O)c2c[nH]c3ncc(-c4ccc(Cl)cc4)cc23)c1F,one-compartment model,"tumour xenograft mouse, plasma","oral, dose not given",,CL/F,1.29 mL/min/kg
COc1ccc(-c2nnc(SCC(=O)Nc3c(F)cc(F)cc3Br)n2C)cc1,,octanol/buffer,"pH 11, known kinase inactives set",,logP,2.49
C[C@@H](Oc1ccc(S(C)(=O)=O)cc1C(=O)N1C[C@@H]2C[C@]2(c2cc(C(F)(F)F)on2)C1)C(F)(F)F,,"elderly humans, plasma","oral, 25 mg single dose, geometric mean",,AUC(0-72 h),7 µM·h
CNCc1ccc(-c2[nH]c3cc(F)cc4c3c2CCNC4=O)cc1,,patients,"oral, 600 mg twice daily, grade 5",,decreased appetite incidence,0%
FC(F)(F)c1ccc(CNc2ccc(Cc3c[nH]c4ncc(Cl)cc34)cn2)cn1,refers to: Hypophosphatemia,"patients with advanced solid tumours, non-TGCT cohort","oral, 1000 mg/day, any grade",,treatment-related adverse events,6%
Nc1nnc(-c2cccc(Cl)c2Cl)c(N)n1,,"human, plasma","15 µg/mL, outliers excluded",baseline: baseline,PR interval increase,6.7 ms
CCn1c(SCC(=O)Nc2cccc(OC)c2)nnc1-c1ccncc1,,octanol/buffer,"pH 11, known kinase inactives set",,logP,1.94
Cc1cc(NC2CCN(C(=O)OC3CCN(C(=O)/C=C/CN(C)C)C3)CC2)n2ncc(C(C)C)c2n1 (stereo not shown),"Phase I dose escalation CTCAE v4.0, refers to: AST increased",patients with advanced solid tumours,"dose not given, Total dosing any grade",,patients with adverse event,19%
CCOc1c([C@H](C)n2nc(C)c3c(N)ncnc32)cc(Cl)c(F)c1[C@@H]1CNC(=O)C1,refers to: QRS ≤ 100 ms,previously treated B-cell malignancy,"oral, dose not given, baseline below thresholds, all doses",,share of patients,98.1%
CO[C@H]1/C=C/O[C@@]2(C)Oc3c(C)c(O)c4c(O)c(c(/C=N/N5CCN(C)CC5)c(O)c4c3C2=O)NC(=O)/C(C)=C\C=C\[C@H](C)[C@H](O)[C@@H](C)[C@@H](O)[C@@H](C)[C@H](OC(C)=O)[C@@H]1C,refers to: vessel puncture site bruise,healthy human participants,"oral, 600 mg, with: gepotidacin 1500 mg",,adverse event incidence,0%
